Results collected from several papers.
Lines come from different studies, so protocols differ.
UniProt Q02156, sequence (whole entry, looked up): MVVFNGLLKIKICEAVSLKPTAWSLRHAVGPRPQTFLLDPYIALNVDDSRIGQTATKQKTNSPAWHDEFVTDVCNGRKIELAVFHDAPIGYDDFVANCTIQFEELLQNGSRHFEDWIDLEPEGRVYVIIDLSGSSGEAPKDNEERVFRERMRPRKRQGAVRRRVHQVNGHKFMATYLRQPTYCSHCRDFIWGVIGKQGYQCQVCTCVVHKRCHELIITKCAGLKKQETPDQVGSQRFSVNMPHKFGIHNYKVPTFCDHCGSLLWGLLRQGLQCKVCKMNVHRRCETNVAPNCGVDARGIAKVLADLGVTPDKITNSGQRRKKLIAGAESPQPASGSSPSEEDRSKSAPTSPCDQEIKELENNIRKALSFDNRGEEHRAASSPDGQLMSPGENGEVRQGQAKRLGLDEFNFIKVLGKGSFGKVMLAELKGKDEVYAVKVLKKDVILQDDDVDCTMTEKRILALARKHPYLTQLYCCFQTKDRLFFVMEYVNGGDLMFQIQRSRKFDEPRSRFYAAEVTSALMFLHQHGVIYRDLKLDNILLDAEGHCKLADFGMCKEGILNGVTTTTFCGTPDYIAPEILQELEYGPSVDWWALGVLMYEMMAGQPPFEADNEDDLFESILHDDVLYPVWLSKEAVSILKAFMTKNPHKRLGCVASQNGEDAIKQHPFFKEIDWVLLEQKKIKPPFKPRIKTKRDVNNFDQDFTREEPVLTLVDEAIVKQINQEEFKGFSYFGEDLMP
UniProt P36896, sequence (whole entry, looked up): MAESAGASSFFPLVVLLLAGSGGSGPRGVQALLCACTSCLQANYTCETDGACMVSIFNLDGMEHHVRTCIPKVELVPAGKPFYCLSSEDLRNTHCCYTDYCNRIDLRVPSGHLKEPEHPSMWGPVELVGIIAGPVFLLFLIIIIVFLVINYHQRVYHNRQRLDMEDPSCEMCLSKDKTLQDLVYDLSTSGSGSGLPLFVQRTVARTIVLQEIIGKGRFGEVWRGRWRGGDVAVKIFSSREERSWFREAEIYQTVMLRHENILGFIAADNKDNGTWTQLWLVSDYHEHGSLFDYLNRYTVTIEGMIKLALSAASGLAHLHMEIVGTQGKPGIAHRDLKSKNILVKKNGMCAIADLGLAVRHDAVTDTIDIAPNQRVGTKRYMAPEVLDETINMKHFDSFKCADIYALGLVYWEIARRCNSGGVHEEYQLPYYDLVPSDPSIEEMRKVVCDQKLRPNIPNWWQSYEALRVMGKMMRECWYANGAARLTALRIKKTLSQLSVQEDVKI

With `C[C@@H]1CC[C@@H]([C@@](O)(CNCc2cccc3ccccc23)COCc2ccccc2)[C@H](OCc2ccccc2)C1` the inhibition was 97.1% (A2780; cell growth or viability, MTT; 10 µM, 72 h).
The remaining binding of `C=CC(=O)N1CCC(COCC(=O)N2CCN(c3nc(-c4cnc(N)nc4C(F)F)nc(N4CCOC[C@@H]4C)n3)CC2)CC1` is reported as 100% (ACVR1B (Homo sapiens, UniProt P36896); binding, competition with immobilised ligand; 1 µM).
`Cc1cc([C@@H](C)Nc2ccccc2C(=O)O)c2nc(N3CCC(F)(F)CC3)c(C#N)c(=O)n2c1` has a remaining binding of 100% (Tyrosine-protein kinase ABL1, phosphorylated (ABL1, Homo sapiens, UniProt P00519, T315I); binding, competition with immobilised ligand; 1 µM).
The cell death of `CC(=NNC(=O)c1ccccc1Cl)c1ccc(Nc2nnc(-c3ccc(Cl)cc3)c3ccccc23)cc1` is reported as 77% (MCF7; cell growth or viability, MTT; 2.5 µM).
`CCCCCCc1c(C)nc2cc(OC)ccc2c1O` has an IC50 of over 10 µM (HEK293; cell growth or viability).
The inhibition of `CCC(=CCc1c(O)cc2c(c1O)C(=O)C[C@H](c1ccccc1O)O2)CC` is reported as 32% (HeLa; cell growth or viability, MTT; 30 µM, 48 h).
`O=C(Nc1ccccc1)Nc1ccc(Oc2nnc(-c3ccc(Cl)cc3)c3ccccc23)cc1` gave a cell death of 3.59% (MCF7; cell growth or viability, MTT; 78 nM).
For `CNc1ncc2c(/C=C/C(=O)N3CCC(C)CC3)nn(CC3CCCC3)c2n1`, the EC50 was 21.2 µM (FLO-1; cell growth or viability, resazurin; 5 days).
With `CC(=NNC(=O)c1ccncc1)c1ccc(Nc2nnc(-c3ccc(Cl)cc3)c3ccccc23)cc1` the cell death was 95.4% (MCF7; cell growth or viability, MTT; 1.25 µM).
The remaining activity of `COc1cc(-c2cncc3c2CN(C)Cc2cc(N4CCNCC4)ccc2-3)cc(OC)c1OC` is reported as 103% (PRKCE (Homo sapiens, UniProt Q02156); enzyme activity, inhibitor; 1 µM).
The IC50 of `C=CCOc1ccc(-c2c(C)[nH]c(C)c(Br)c2=O)cc1` is reported as over 10 µM (HEK293; cell growth or viability).
With `NCc1ccc(-c2nn(Cc3ccncc3)c3ccccc23)o1` the inhibition was 68% (RBE; cell growth or viability, ATP luminescence; 46 µM, 72 h).
`Cc1cn(-c2cc(NC(=O)c3ccc(C)c(Nc4nccc(-c5cccnc5)n4)c3)cc(C(F)(F)F)c2)cn1` has an IC50 of over 10 µM (HD-MB03; cell growth or viability; 7 days).
`CC(=NNC(=O)c1ccccc1)c1ccc(Nc2nnc(-c3ccc(Cl)cc3)c3ccccc23)cc1` gave a cell death of 0.62% (MCF7; cell growth or viability, MTT; 0.312 µM).
`C=C(C)Cn1nc(-c2ccc(CO)o2)c2ccccc21` gave an inhibition of 48% (RBE; cell growth or viability, ATP luminescence; 46 µM, 72 h).
For `CCCCC(=O)Nc1ccc(-c2ccc3ncn(CCC)c(=O)c3c2)cn1`, the remaining binding was 96% (Tyrosine-protein kinase ABL1, non-phosphorylated (ABL1, Homo sapiens, UniProt P00519, F317L); binding, competition with immobilised ligand; 0.5 µM).
The viability of `CCCOc1ccc2c(C)c(CC)c(=O)oc2c1C` is reported as 9.47% (PC-3; cell growth or viability, MTT; 500 µg/mL).
For `CC(=NNC(N)=S)c1ccc(Nc2nnc(-c3ccc(Cl)cc3)c3ccccc23)cc1`, the viability was 9.65% (MCF7; cell growth or viability, MTT; 10 µM, 24 h).
With `Cc1cc(NS(=O)(=O)c2ccc(N=NN(O)c3ccccc3)cc2)no1` the inhibition was 44.2% (ABTS scavenging; 60 µg/mL).
With `Cc1ccc2[nH]c(C)c(Br)c(=O)c2c1` the IC50 was over 10 µM (HEK293; cell growth or viability).
For `C=C(COCc1ccc(F)cc1)[C@@H]1CC[C@@H](C)C[C@H]1OCc1ccc(F)cc1`, the inhibition was 52% (A2780; cell growth or viability, MTT; 30 µM, 72 h).
For `Nc1ncnc2c1c(/C=C/C(=O)N1CCC(c3ccccc3)CC1)nn2CC1CCCC1`, the EC50 was over 30 µM (FLO-1; cell growth or viability, resazurin; 5 days).
With `O=C(C=Cc1ccccc1)Nc1ccc(Oc2nnc(-c3ccc(Cl)cc3)c3ccccc23)cc1` the cell death was 60.1% (MCF7; cell growth or viability, MTT; 1.25 µM).
`Cc1ccc(C(CS(=O)(=O)c2ccccc2)=NNc2nc(-c3ccc(OCCCCOc4ccc(-c5csc(NN=C(CS(=O)(=O)c6ccccc6)c6ccc(C)cc6)n5)cc4)cc3)cs2)cc1` has a viability of 56% (WM 266-4; cell growth or viability, MTT; 6.3 µM, 48 h).
The inhibition of `CN(O)N=Nc1ccc(S(=O)(=O)Nc2nccs2)cc1` is reported as 55% (ABTS scavenging; 60 µg/mL).
For `CC(=O)Nc1ccc(Oc2nnc(-c3ccc(Cl)cc3)c3ccccc23)cc1`, the cell death was 96.3% (MCF7; cell growth or viability, MTT; 5 µM).
`CCc1c(C)c2ccc(OCC(=O)NN=Cc3ccc([N+](=O)[O-])cc3)cc2oc1=O` has a viability of 18% (PC-3; cell growth or viability, MTT; 62.5 µg/mL).
`CNc1ncc2c(/C=C/C(=O)N3CCC(OC)CC3)nn(Cc3cccc(OC)c3)c2n1` has an EC50 of 4.63 µM (FLO-1; cell growth or viability, resazurin; 5 days).
With `Cc1[nH]c(C)c(-c2ccc(C#Cc3ccc(F)cc3F)cc2)c(=O)c1Br` the IC50 was over 10 µM (HEK293; cell growth or viability).
`C=CCNC(=S)NNC(=O)COc1ccc2c(C)c(CC)c(=O)oc2c1C` has a viability of 2.84% (PC-3; cell growth or viability, MTT; 500 µg/mL).

Some of these lines once more:
For `Nc1ncnc2c1c(/C=C/C(=O)N1CCC(c3ccccc3)CC1)nn2CC1CCCC1`, the EC50 was over 30 µM (FLO-1; cell growth or viability, resazurin; 5 days).
With `O=C(C=Cc1ccccc1)Nc1ccc(Oc2nnc(-c3ccc(Cl)cc3)c3ccccc23)cc1` the cell death was 60.1% (MCF7; cell growth or viability, MTT; 1.25 µM).
`Cc1ccc(C(CS(=O)(=O)c2ccccc2)=NNc2nc(-c3ccc(OCCCCOc4ccc(-c5csc(NN=C(CS(=O)(=O)c6ccccc6)c6ccc(C)cc6)n5)cc4)cc3)cs2)cc1` has a viability of 56% (WM 266-4; cell growth or viability, MTT; 6.3 µM, 48 h).
